Values quoted from earlier work that unrelated publications cite.
Protocols differ between the studies behind these lines. Numbers after ± are the reported error.
Cytosol aminopeptidase: Cytosol aminopeptidase (Sus scrofa, UniProt P28839)
UniProt P28839, sequence (whole entry, looked up): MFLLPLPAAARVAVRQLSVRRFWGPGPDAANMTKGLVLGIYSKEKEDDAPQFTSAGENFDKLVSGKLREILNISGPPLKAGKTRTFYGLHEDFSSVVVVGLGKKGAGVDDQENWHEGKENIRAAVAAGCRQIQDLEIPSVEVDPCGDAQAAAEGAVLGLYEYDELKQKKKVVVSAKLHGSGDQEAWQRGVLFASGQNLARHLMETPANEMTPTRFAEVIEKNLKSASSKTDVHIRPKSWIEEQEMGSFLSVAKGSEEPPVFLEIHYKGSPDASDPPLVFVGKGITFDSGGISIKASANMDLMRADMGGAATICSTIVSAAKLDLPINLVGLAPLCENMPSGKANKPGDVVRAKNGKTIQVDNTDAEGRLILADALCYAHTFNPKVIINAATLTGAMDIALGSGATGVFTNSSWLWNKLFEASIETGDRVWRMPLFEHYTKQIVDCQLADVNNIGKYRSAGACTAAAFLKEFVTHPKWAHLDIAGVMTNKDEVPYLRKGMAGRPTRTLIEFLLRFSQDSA
UniProt Q60612, sequence (whole entry, looked up): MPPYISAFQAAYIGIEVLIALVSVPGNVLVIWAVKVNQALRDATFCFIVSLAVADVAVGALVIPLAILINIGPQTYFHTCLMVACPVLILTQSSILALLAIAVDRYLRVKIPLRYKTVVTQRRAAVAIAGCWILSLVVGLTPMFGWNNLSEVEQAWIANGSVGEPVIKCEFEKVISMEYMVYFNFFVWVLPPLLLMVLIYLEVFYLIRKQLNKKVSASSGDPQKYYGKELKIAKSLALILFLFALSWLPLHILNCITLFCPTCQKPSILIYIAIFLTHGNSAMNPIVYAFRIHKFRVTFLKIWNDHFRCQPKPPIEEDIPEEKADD
UniProt O00748, sequence (whole entry, looked up): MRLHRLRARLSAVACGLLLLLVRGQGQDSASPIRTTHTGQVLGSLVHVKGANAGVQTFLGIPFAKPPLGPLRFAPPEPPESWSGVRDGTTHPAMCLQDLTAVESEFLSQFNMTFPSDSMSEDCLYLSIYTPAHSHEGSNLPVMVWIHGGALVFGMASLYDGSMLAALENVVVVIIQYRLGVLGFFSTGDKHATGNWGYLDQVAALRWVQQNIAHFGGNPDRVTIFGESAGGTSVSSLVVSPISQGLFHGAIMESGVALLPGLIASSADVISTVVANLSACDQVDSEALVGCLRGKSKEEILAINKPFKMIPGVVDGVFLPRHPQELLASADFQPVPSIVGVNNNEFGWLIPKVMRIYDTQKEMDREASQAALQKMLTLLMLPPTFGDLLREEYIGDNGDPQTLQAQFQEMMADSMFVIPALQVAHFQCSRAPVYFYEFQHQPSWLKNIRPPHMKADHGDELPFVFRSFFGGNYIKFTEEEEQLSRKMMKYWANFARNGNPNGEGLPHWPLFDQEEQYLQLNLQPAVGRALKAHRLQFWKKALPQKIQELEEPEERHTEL
UniProt P23921, sequence (whole entry, looked up): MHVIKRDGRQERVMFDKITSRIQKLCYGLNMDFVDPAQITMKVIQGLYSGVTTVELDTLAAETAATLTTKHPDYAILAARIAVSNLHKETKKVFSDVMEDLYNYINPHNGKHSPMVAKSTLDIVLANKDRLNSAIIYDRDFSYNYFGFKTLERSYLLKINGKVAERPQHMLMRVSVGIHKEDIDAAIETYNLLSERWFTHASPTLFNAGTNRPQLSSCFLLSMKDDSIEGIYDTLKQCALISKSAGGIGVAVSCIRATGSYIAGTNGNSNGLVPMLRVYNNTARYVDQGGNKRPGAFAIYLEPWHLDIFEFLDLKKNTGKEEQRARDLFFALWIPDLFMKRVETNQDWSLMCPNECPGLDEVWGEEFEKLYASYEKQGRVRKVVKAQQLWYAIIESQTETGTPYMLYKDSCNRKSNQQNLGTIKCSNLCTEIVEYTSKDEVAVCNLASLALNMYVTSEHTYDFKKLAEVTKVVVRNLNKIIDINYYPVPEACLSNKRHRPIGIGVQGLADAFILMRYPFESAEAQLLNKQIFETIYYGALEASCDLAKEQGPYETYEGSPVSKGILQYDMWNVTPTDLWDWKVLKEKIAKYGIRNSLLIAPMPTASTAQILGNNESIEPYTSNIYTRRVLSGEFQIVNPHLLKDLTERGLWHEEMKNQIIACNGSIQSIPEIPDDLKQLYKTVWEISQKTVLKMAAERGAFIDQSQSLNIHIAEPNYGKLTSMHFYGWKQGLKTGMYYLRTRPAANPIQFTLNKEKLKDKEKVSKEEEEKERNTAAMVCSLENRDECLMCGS
UniProt O35433, sequence (whole entry, looked up): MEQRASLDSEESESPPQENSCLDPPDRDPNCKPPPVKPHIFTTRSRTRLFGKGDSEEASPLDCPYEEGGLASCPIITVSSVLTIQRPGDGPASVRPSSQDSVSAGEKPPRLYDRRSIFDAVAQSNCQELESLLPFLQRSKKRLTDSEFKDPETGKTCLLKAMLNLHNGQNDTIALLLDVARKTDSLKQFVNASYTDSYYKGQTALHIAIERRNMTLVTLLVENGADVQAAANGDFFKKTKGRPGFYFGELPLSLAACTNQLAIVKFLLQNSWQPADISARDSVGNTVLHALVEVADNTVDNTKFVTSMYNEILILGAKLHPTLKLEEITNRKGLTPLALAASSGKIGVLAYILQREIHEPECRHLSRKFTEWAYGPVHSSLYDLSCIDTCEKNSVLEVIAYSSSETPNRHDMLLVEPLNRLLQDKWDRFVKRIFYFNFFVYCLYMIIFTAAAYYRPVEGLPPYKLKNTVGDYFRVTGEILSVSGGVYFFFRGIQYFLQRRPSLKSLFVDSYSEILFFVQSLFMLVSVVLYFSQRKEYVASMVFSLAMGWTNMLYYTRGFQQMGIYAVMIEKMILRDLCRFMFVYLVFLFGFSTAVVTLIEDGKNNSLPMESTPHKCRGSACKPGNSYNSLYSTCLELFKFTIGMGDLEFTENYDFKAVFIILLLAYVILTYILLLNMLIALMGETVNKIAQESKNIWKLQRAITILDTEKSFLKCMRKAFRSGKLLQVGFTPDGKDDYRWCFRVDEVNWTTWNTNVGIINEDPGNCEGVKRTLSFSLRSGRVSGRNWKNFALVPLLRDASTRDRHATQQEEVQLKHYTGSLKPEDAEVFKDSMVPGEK
UniProt P02718, sequence (whole entry, looked up): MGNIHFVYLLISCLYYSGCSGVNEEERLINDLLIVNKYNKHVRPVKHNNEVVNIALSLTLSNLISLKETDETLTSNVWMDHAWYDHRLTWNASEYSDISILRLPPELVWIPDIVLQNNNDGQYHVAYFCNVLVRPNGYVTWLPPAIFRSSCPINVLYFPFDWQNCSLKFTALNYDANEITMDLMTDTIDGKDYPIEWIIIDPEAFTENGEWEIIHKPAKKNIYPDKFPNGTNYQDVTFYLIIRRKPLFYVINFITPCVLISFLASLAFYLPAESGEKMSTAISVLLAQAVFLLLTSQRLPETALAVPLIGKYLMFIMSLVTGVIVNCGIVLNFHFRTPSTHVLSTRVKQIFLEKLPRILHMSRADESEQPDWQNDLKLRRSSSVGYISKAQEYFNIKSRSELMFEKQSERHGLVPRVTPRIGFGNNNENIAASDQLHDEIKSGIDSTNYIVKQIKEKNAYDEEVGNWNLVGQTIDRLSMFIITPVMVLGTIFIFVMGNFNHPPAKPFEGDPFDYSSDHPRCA
UniProt P94556, sequence (whole entry, looked up): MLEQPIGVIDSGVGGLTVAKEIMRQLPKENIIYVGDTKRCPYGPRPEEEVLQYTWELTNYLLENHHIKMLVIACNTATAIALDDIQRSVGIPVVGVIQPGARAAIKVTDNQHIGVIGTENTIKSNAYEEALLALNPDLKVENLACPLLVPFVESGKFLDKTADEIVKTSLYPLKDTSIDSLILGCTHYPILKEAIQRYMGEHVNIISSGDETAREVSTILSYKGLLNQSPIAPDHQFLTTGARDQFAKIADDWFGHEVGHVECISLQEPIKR
UniProt P02714, sequence (whole entry, looked up): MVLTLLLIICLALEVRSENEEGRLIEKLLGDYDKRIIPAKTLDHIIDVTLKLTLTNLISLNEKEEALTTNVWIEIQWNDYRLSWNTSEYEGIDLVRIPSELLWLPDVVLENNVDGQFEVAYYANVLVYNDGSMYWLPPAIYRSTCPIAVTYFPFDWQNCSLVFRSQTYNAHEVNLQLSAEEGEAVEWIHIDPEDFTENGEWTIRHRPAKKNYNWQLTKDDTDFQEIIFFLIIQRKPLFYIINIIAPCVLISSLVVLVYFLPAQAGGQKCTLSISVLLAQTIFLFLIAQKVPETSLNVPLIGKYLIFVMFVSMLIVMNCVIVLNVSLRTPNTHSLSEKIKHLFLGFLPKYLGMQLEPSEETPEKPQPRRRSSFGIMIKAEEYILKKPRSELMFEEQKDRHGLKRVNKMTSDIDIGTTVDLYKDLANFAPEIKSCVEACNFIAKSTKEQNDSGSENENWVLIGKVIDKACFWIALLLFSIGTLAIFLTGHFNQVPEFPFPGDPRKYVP
UniProt Q01827, sequence (whole entry, looked up): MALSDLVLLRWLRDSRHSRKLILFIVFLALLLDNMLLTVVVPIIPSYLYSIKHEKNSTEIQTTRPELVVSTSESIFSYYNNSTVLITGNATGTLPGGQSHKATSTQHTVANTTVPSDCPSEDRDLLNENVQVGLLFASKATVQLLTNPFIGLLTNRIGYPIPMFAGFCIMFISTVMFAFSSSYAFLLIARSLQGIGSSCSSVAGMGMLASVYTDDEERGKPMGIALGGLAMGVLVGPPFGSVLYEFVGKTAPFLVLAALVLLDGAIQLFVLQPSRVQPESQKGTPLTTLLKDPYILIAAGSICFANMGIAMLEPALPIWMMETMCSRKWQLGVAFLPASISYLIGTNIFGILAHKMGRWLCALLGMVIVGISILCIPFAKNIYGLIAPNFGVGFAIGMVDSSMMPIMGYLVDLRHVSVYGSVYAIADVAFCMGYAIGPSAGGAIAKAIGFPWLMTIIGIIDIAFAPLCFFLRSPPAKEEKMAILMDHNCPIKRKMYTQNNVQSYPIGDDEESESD

| SMILES | target | assay | system | setting | Ki [µM] |
| --- | --- | --- | --- | --- | --- |
| CC=O | yeast alcohol dehydrogenase wild-type | inhibitor, product inhibition, slope constant |  | pH 7.3, 30 °C | 210 |
| CN1[C@H]2CC[C@@H]1[C@@H](C(=O)N1CCCC1)[C@@H](c1ccc(I)cc1)C2 | Transporter (Slc6a2, Rattus norvegicus, UniProt Q63380) | reuptake, inhibitor | rat brain synaptosomes |  | 0.0195 ± 0.0006 |
| C=CCN(CC=C)CCc1c[nH]c2ccccc12 | Tspo (Rattus norvegicus, UniProt P16257) | binding, radioligand binding | rat kidney | added: [3H]PK11195 | > 10 |
| Brc1ccc([C@@H]2CCNC[C@H]2COc2ccc3c(c2)OCO3)cc1 | serotonin transporter | [3H]5-HT uptake, inhibitor |  |  | 0.00313 |
| COc1ccc(CC[C@H]2CCC[C@@H](CCc3ccc(OC)cc3)N2C[C@@H](O)CO)cc1 (relative stereo) | alpha4beta2 nicotinic acetylcholine receptor | binding |  | added: [3H]nicotine | > 100 |
| C=C1CC[C@@H]2[C@@H](C1)c1c(OC)cc(C(C)(C)CCCCCC)cc1OC2(C)C | CB1 receptor | binding |  |  | 4.8 |
| C=CCN(CC=C)CCc1c[nH]c2ccc(F)cc12 | DRD4 (Homo sapiens, UniProt P21917) |  |  |  | > 10 |
| C=C(C)[C@H]1Cc2c(ccc3c2O[C@@H]2COc4cc(OC)c(OC)cc4[C@@H]2C3=O)O1 | TSPO |  |  | added: [3H]Ro5-4864 | 10.5 |
| C=C1C[C@H]2CC3(O)O[C@H](C[C@@H](O)CC(=O)O[C@@H]([C@@H](C)O)C[C@@H]4C/C(=C\C(=O)OC)[C@H](OC(=O)/C=C/C=C/CCC)[C@@](O)(O4)C(C)(C)/C=C/[C@@H](C1)O2)C[C@H](OC(C)=O)C3(C)C | PRKCA (Homo sapiens, UniProt P17252) | binding, competitive |  |  | 0.00052 ± 6e-05 |
| OC(Cn1cncn1)(Cn1cncn1)c1ccc(F)cc1F | Cytochrome P450 3A5 (CYP3A5, Homo sapiens, UniProt P20815) | inhibitor |  | added: midazolam substrate | 84.6 ± 12.9 |
| C=C(C)[C@@]12C[C@@H](C)C34OC(Cc5ccccc5)(OC1[C@@H]3C=C(COC(=O)Cc1cc(Br)c(N)c(OC)c1)C[C@]1(O)C(=O)C(C)=C[C@@H]41)O2 (stereo partly shown) | Trpv1 (Rattus norvegicus, UniProt O35433) | calcium uptake, antagonist, 45Ca2+ uptake | CHO |  | 0.00281 |
| NCC(N)P(=O)(O)O (stereo not shown) | Cytosol aminopeptidase | inhibitor |  |  | > 800 |
| O=c1c(-c2cccnc2)ccc2n1C[C@@H]1CNC[C@H]2C1 | CHRNA1/CHRNG/chrnd (Tetronarce californica, UniProt P02710+P02714+P02718) |  |  |  | > 5 |
| CC(C)CN(C[C@@H](O)[C@H](Cc1ccccc1)NC(=O)O[C@H]1CCOC1)S(=O)(=O)c1ccc(N)cc1 | PR S17 variant | isothermal titration calorimetry |  |  | 0.011 |
| CCC(CC)O[C@@H]1C=C(C(=O)O)C[C@H](N)[C@H]1NC(C)=O | human Neu2 | enzyme activity, inhibitor |  |  | 432 |
| C[C@@H]1O[C@@H](O[C@H]2C[C@@H](O)[C@]3(CO)[C@H]4[C@H](O)C[C@]5(C)[C@@H](C6=CC(=O)OC6)CC[C@]5(O)[C@@H]4CC[C@]3(O)C2)[C@H](O)[C@H](O)[C@H]1O | Na+/K+-ATPase human recombinant | enzyme activity, inhibitor |  |  | 0.097 |
| CN(C(=N)Nc1cccc2ccccc12)c1cccc(I)c1 | NMDA receptor | radioligand binding |  | added: [3H]MK801 | 0.00465 |
| CCN[C@@H](C)Cc1ccc2ccccc2c1 | serotonin transporter | binding |  | K+-free high Na+ buffer | 0.004 |
| CN1[C@@H](CCc2ccccc2)CCC[C@H]1CCc1ccccc1 | alpha4beta2 nicotinic acetylcholine receptor | binding |  | added: [3H]nicotine | 77.3 |
| CCC[C@@]1(CCc2ccccc2)CC(O)=C([C@H](CC)c2cccc(NS(=O)(=O)c3ccc(C(F)(F)F)cn3)c2)C(=O)O1 | HIV-1 protease wild type |  |  |  | 1.9e-05 |
| Fc1ccc(C2(NCCCOC3CCCCO3)CC3CCC2C3)cc1 (stereo not shown) | dopamine transporter (DAT) | binding, competitive, radioligand binding |  |  | 3.16 |
| N#Cc1c(N)nc(SCC(N)=O)c(C#N)c1-c1ccc(OCC2CC2)cc1 | Adenosine receptor A1 (Mus musculus, UniProt Q60612) | binding, antagonist |  | mouse receptor | 0.351 |
| O=S(=O)(O)c1ccc(O)c(S(=O)(=O)O)c1 | racE (Bacillus subtilis, UniProt P94556) |  |  |  | 58 ± 13 |
| CN1[C@@H](CC(=O)c2ccccc2)CCC[C@H]1C[C@H](O)c1ccccc1 | alpha7 nicotinic acetylcholine receptor | binding |  | added: [3H]methyllycaconitine | 11.6 |
| Nc1nc(Cl)nc2c1ncn2[C@@H]1O[C@H](COP(=O)(O)OP(=O)(O)OP(=O)(O)O)[C@@H](O)[C@@H]1F | Ribonucleoside-diphosphate reductase large subunit (Homo sapiens, UniProt P23921) | enzyme activity, inhibitor |  |  | 0.04 |
| CN1C/C(=C\c2ccc(Cl)cc2Cl)C/C(=C\c2ccc(Cl)cc2Cl)C1 | Slc18a2 (Rattus norvegicus, UniProt Q01827) | binding |  | added: dihydrotetrabenazine site | 4.6 |
| CNCC(N)P(=O)(O)O (stereo not shown) | Cytosol aminopeptidase | inhibitor |  |  | > 800 |
| CS(=O)(=O)Nc1ccc(SSc2ccc(NS(C)(=O)=O)cc2)cc1 | Cocaine esterase (CES2, Homo sapiens, UniProt O00748) |  |  |  | > 100 |

Repeated from above:
| SMILES | target | assay | system | setting | Ki [µM] |
| --- | --- | --- | --- | --- | --- |
| C=C(C)[C@H]1Cc2c(ccc3c2O[C@@H]2COc4cc(OC)c(OC)cc4[C@@H]2C3=O)O1 | TSPO |  |  | added: [3H]Ro5-4864 | 10.5 |
| N#Cc1c(N)nc(SCC(N)=O)c(C#N)c1-c1ccc(OCC2CC2)cc1 | Adenosine receptor A1 (Mus musculus, UniProt Q60612) | binding, antagonist |  | mouse receptor | 0.351 |
| CCC(CC)O[C@@H]1C=C(C(=O)O)C[C@H](N)[C@H]1NC(C)=O | human Neu2 | enzyme activity, inhibitor |  |  | 432 |
| O=S(=O)(O)c1ccc(O)c(S(=O)(=O)O)c1 | racE (Bacillus subtilis, UniProt P94556) |  |  |  | 58 ± 13 |
